Published values from different studies.
A part holds a random share of what one study measured. Values joined by “and” are separate records of one study, mostly repeats; a detail may differ.
UniProt Q9P2K8, sequence (whole entry, unmodified, looked up): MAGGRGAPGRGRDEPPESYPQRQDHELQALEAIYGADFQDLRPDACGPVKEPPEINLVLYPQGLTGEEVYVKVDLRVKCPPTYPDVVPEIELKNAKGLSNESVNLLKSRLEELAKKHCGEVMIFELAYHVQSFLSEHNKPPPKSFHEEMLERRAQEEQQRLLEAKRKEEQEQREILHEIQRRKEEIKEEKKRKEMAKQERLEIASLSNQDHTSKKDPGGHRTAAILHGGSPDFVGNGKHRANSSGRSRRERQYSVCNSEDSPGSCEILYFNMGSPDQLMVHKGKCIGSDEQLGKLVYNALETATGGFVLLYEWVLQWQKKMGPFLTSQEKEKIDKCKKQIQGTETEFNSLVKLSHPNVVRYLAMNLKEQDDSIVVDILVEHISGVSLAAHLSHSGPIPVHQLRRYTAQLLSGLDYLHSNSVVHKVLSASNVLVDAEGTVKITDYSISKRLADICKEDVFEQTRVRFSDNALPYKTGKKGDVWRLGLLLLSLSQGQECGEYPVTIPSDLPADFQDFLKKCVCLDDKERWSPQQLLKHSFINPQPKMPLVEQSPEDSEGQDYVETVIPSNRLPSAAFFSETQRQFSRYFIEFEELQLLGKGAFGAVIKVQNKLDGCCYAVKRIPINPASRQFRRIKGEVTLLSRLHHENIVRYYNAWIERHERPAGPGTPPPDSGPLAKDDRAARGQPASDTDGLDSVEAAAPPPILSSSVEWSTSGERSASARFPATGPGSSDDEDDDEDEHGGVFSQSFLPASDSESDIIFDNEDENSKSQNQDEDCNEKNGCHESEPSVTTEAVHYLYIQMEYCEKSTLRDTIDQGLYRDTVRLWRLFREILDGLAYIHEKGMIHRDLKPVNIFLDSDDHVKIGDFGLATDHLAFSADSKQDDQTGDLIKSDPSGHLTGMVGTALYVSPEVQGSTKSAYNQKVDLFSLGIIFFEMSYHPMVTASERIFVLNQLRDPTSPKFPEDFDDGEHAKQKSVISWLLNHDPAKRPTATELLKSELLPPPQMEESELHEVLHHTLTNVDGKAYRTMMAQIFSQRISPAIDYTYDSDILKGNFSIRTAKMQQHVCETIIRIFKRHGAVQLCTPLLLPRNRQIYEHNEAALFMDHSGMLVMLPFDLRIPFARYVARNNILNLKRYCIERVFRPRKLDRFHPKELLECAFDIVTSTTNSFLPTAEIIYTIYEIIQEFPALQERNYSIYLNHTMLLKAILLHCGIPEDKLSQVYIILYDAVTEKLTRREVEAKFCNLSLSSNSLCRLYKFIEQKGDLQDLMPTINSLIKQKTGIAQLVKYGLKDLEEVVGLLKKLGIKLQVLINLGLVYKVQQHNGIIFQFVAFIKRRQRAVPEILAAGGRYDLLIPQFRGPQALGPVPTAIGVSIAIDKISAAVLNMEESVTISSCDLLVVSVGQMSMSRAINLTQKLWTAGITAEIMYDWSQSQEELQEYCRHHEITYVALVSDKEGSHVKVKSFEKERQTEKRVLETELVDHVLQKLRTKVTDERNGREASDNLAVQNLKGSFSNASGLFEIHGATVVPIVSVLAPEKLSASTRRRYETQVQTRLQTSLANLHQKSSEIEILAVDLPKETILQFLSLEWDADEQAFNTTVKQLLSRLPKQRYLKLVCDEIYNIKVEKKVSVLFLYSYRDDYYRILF
UniProt P46098, sequence (whole entry, looked up): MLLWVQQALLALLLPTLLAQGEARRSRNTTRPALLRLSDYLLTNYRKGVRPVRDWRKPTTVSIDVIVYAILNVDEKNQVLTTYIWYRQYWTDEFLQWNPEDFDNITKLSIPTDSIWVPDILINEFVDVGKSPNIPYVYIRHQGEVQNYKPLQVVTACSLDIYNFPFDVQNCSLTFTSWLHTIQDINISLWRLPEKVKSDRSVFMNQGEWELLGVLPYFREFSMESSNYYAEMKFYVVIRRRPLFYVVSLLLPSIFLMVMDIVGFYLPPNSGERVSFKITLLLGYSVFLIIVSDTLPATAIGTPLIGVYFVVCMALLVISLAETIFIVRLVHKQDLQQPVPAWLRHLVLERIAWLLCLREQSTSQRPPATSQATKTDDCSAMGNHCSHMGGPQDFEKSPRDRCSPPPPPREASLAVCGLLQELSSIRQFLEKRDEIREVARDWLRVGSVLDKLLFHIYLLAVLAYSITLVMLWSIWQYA
UniProt Q13546, sequence (whole entry, looked up): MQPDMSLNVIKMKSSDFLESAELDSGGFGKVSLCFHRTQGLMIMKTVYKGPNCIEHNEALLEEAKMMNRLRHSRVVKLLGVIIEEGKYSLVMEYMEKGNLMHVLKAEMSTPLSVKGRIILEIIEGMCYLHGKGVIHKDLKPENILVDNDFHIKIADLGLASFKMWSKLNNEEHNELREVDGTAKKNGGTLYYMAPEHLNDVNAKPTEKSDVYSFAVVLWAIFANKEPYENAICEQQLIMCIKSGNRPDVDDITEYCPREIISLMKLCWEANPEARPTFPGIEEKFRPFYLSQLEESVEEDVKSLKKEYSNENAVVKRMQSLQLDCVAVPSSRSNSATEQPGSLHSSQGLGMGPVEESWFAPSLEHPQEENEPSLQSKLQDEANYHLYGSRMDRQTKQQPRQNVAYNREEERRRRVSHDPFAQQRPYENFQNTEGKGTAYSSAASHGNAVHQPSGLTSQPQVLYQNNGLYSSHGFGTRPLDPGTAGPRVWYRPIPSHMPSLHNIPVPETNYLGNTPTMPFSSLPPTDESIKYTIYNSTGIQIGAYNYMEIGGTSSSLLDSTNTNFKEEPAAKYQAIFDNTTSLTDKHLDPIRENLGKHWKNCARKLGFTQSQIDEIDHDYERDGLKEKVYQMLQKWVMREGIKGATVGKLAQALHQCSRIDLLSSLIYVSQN

Sample 1 — cell line: HaCaT; tested at: 100 µM; time: 36 h
SMILES	viability
COc1cc2c(cc1Cc1cccc(Cl)c1F)c(=O)c(C(=O)O)cn2[C@H](CO)C(C)C	61.6%
CC[C@H]1OC(=O)[C@H](C)[C@@H](O[C@H]2C[C@@](C)(OC)[C@@H](O)[C@H](C)O2)[C@H](C)[C@@H](O[C@@H]2O[C@H](C)C[C@H](N(C)C)[C@H]2O)[C@](C)(O)C[C@@H](C)/C(=N\OCOCCOC)[C@H](C)[C@@H](O)[C@]1(C)O	61.8%
CO[C@H]1/C=C/O[C@@]2(C)Oc3c(C)c(O)c4c(O)c(c5c(nc6cc(C)ccn65)c4c3C2=O)NC(=O)/C(C)=C\C=C\[C@H](C)[C@H](O)[C@@H](C)[C@@H](O)[C@@H](C)[C@H](OC(C)=O)[C@@H]1C	17.7%
CNC(=O)c1cnn(-c2nc(N)c3ncn([C@@H]4O[C@H](CO)[C@@H](O)[C@H]4O)c3n2)c1	99.1%

Sample 2 — cell line: HEK293T ATF4-firefly luciferase reporter; read-out: integrated stress response; measured: ATF4; baseline: DMSO
SMILES: Ic1ccc(Nc2nc(NCCN3CCOCC3)nc(N3CCOCC3)n2)cc1
setting	reporter signal
1 µM, without ISRIB	126% and 113% and 106% and 118% and 102% and 119% and 120%
1 µM, together with: ISRIB	86.2% and 80.7% and 72.1% and 76.7% and 83.2% and 65.8% and 88.8% and 76.5%
10 µM, without ISRIB	182% and 171% and 145% and 165%

Sample 3 — read-out: binding; tested at: 1 µM
SMILES: COc1ccc2[nH]c3c4[nH]c5ccc(OC)cc5c4c4c(c3c2c1)C(=O)NC4=O
target	remaining binding
RIPK1 (Homo sapiens, UniProt Q13546)	90%
DYRK1B (Homo sapiens, UniProt Q9Y463)	79%
EIF2AK4 (Homo sapiens, UniProt Q9P2K8, S808G)	74%

Mixed results
Compound	target	assay	setting	quantity	value
O=C1CCc2cc(Nc3cc(OC4CCOCC4)c([N+](=O)[O-])cc3Cl)ccc2N1	5-hydroxytryptamine receptor 3A (HTR3A, Homo sapiens, UniProt P46098)	binding, radioligand binding	10 µM	inhibition	4.05%

A few entries again (sample 3):
target	remaining binding
RIPK1 (Homo sapiens, UniProt Q13546)	90%
EIF2AK4 (Homo sapiens, UniProt Q9P2K8, S808G)	74%
